Experimental data of several laboratories.
± gives the spread as reported.
Cell line: Caco-2

The IC50 of `O=C(/C=C(O)/C=C/c1cccs1)/C=C/c1cccs1` is reported as 46 µM (cell growth or viability, SRB; 72 h).
With `NC1=N[N+](=Cc2c3ccccc3cc3ccccc23)[Ga-3]23([S]1)([S]C(N)=N[N+]2=Cc1c2ccccc2cc2ccccc12)[S]C(N)=N[N+]3=Cc1c2ccccc2cc2ccccc12` the IC50 was 4.7 µM (72 h).
`[Cl][Pd-2]1([Cl])[N+](=Cc2ccc[nH]2)Cc2cccc[n+]21` gave an IC50 of 15.8 µg/mL (cell growth or viability, MTT; 24 h).
`O=C(O)CNc1nc(NNC(=O)c2ccc(Nc3nc(Nc4ccc(C(=O)NNc5nc(NCC(=O)O)nc(N6CCCCC6)n5)cc4)nc(Nc4ccc(C(=O)NNc5nc(NCC(=O)O)nc(N6CCCCC6)n5)cc4)n3)cc2)nc(N2CCCCC2)n1` gave an IC50 of 0.042 µM (cell growth or viability, MTT; 72 h).
`c1ccc(-c2nn(-c3nc4ccccc4s3)[n+](-c3ccccc3)n2)cc1` gave an IC50 of 40 ± 3 µM (cell growth, resazurin).
With `O=C1/C(=C(\O)CCc2ccccc2)C(=O)[C@@]2(C(=O)OC3CCCCC3)CS[C@H](c3ccccc3)N12` the IC50 was 7.81 µg/mL (cell viability, Alamar Blue).
With `O=C(O)CNc1nc(Cl)nc(NNC(=O)c2ccc(Nc3nc(Nc4ccc(C(=O)NNc5nc(Cl)nc(NCC(=O)O)n5)cc4)nc(Nc4ccc(C(=O)NNc5nc(Cl)nc(NCC(=O)O)n5)cc4)n3)cc2)n1` the IC50 was 0.0547 µM (cell growth or viability, MTT; 72 h).
`O=C1/C(=C(\O)CCc2ccccc2)C(=O)[C@@]2(C(=O)OCc3ccccc3)CS[C@H](c3ccccc3)N12` has an IC50 of 31.3 µg/mL (cell viability, Alamar Blue).
`O=C(O)CNc1nc(NCC(=O)O)nc(NNC(=O)c2ccc(Nc3nc(Nc4ccc(C(=O)NNc5nc(NCC(=O)O)nc(NCC(=O)O)n5)cc4)nc(Nc4ccc(C(=O)NNc5nc(NCC(=O)O)nc(NCC(=O)O)n5)cc4)n3)cc2)n1` has an IC50 of 0.0033 µM (cell growth or viability, MTT; 72 h).
With `COC(=O)C1CN1S(=O)(=O)c1ccc2cc(OC)ccc2c1` (stereo not drawn) the IC50 was 150 µM (cell growth or viability, MTT; 48 h).
`COc1cc(O)c2c(c1)O[C@H](c1ccccc1)CC2=O` has an IC50 of 86 µM (cell growth or viability, MTT; 48 h).
For `O=C1/C(=C(\O)c2ccccc2)C(=O)[C@@]2(C(=O)OC3CCCCC3)CS[C@H](c3ccccc3)N12`, the IC50 was 31.3 µg/mL (cell viability, Alamar Blue).
The IC50 of `CO[C@H]1N(OC)c2ccccc2[C@@]12CN=C(Nc1cc(C(F)(F)F)cc(C(F)(F)F)c1)S2` (relative stereo) is reported as 67.4 µM (cell growth or viability, MTS; 72 h).
`Cn1ccn(N=Cc2ccccc2SSc2ccccc2C=Nn2ccn(C)c2=S)c1=S` gave an IC50 of 0.37 ± 0.02 µM (cell proliferation, MTT; 72 h).
The IC50 of `c1ccc(-n2nc(-c3ccccn3)n[n+]2-c2ccccc2)cc1` is reported as 270 ± 40 µM (cell growth, resazurin).
For `C[S+](C)([O-])[Pt-2]([Cl])([Cl])[N+](=Cc1ccc[nH]1)Cc1ccccc1`, the IC50 was 16.6 µg/mL (cell growth or viability, MTT; 24 h).
`CC(=NNC(N)=S)c1ccc2ccccc2c1.CC(=NNC(N)=S)c1ccc2ccccc2c1.[Cl][Cu][Cl]` gave an IC50 of ~1 µM (cytotoxicity, MTS; 72 h).
`N=C(N)NCCC[C@@H](N)C(=O)N[C@@H](Cc1c[nH]c2ccccc12)C(=O)N[C@@H](CCC(N)=O)C(=O)N[C@@H](Cc1c[nH]c2ccccc12)C(=O)N[C@@H](CCCNC(=N)N)C(=O)N[C@@H](Cc1c[nH]c2ccccc12)C(=O)N[C@@H](CCC(N)=O)C(=O)N[C@@H](Cc1c[nH]c2ccccc12)C(=O)N[C@@H](CCCNC(=N)N)C(N)=O` has an IC50 of 105 µM (cell growth or viability, MTT).
`Oc1ccccc1-n1nc(-c2ccccc2)n[n+]1-c1ccccc1` has an IC50 of 250 ± 80 µM (cell growth, resazurin).
With `O=C(CNc1nc(NNC(=O)c2ccc(Nc3nc(Nc4ccc(C(=O)NNc5nc(NCC(=O)NO)nc(N6CCOCC6)n5)cc4)nc(Nc4ccc(C(=O)NNc5nc(NCC(=O)NO)nc(N6CCOCC6)n5)cc4)n3)cc2)nc(N2CCOCC2)n1)NO` the IC50 was 0.0391 µM (cell growth or viability, MTT; 72 h).
`CCOC(=O)c1ccc(NC(=O)C(C#N)=C2C(=O)c3ccccc3C2=O)cc1` gave an IC50 of 37.3 ± 2.4 µM (cell viability; 24 h).

Excerpt of the above:
The IC50 of `CO[C@H]1N(OC)c2ccccc2[C@@]12CN=C(Nc1cc(C(F)(F)F)cc(C(F)(F)F)c1)S2` (relative stereo) is reported as 67.4 µM (cell growth or viability, MTS; 72 h).
`Cn1ccn(N=Cc2ccccc2SSc2ccccc2C=Nn2ccn(C)c2=S)c1=S` gave an IC50 of 0.37 ± 0.02 µM (cell proliferation, MTT; 72 h).
